# Results pooled from the literature.
# Parts stem from different laboratories: compare values within a part only.

# Set 1 — technique: protein binding microarray; form: double-stranded DNA, one strand shown; matrix: in vitro; tested at: not given; relative to: not given; direction: higher = stronger binding
# Target: Histone acetyltransferase KAT6A, both winged helices, GST fusion (KAT6A, Homo sapiens, UniProt Q92794, residues 1-181)
# Notes: 8-mer, flanks averaged, mean of 2 arrays, mostly near background
# Construct (chain): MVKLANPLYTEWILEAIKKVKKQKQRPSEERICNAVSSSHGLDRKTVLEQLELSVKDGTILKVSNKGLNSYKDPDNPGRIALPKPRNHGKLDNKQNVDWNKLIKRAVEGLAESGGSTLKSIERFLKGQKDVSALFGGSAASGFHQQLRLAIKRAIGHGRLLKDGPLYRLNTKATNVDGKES
Strand,E-score
AAAAACCA,-0.0114
AGATGGAC,0.0262
CAAACCAG,-0.2
CAGACCGC,0.169
ACGAGGTG,-0.123
GGCCACAA,-0.0229
GGTACTCA,-0.11
CATATCGC,0.189
GACATCGC,0.2
AGGCCTCG,-0.0277
ATCGCGCA,0.3
ATGCGTAC,0.138
CTCGTTGC,0.01
CGCTGGAC,0.0688
CCCTTAAA,-0.225
AAGTAAAG,-0.065
CGGGAGAA,0.0203
CGTTGTTA,-0.0656
ACAGGTAG,-0.165
AATTAGGC,-0.163
TGTACCAA,0.0109
CTCTGAGC,-0.118
AGTAGTAA,-0.0498
CTGCCTTC,-0.0945
GTGCCTTA,-0.22

# Set 2 — technique: protein-binding microarray; form: double-stranded DNA, one strand shown; matrix: in vitro; tested at: 0.8 µM; notes: whole 60-bp probe, no competitor; direction: higher = stronger binding; shared flanks, not repeated: … GTCTTGATTCGCTTGACGCTGCTG
# Target: Centromere-binding protein 1, full length, N-terminal tag (CBF1, Saccharomyces cerevisiae, UniProt P17106, residues 1-351)
# Chain of UniProt P17106 (whole entry, looked up): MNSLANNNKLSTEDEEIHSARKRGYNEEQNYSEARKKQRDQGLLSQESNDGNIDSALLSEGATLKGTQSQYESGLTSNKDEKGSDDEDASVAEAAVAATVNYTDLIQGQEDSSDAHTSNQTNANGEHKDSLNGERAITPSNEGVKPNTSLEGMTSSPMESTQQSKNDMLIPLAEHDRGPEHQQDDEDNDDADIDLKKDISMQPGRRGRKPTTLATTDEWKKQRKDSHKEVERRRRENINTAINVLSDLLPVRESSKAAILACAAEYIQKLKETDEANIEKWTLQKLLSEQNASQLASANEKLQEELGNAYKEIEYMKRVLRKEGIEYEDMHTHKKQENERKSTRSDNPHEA
Strand,fluorescence intensity
GAAAGGACATGGATTCATCACGTACAATGATCATAG,595 a.u.
TGTACGAAGCTATTTGATGTGATTATAGTAGTTAGG,498 a.u.
GAAGTAATCAATAATGGCGTGTAACAGTATAATTAG,514 a.u.
GAAAAGAGCATGCATCACCCCATACGATCCCCGTAG,512 a.u.
CTACGAAATTGAGTGCACATGCTCGCAAGATAATTC,996 a.u.
CTATTATGTTTAATCCACGTTACACCACCAATTTTC,591 a.u.
CTAAGCTTTTCAAATCACGCAATGGAATATTTGTTC,750 a.u.
GAAGCAAAAAAATCAGGTGTGCAGCTATAGATCTAG,859 a.u.
CTATGGTGCCCGTATCTGATGTTTTTTTAGTAATTC,496 a.u.
CTAAGTGAAATACAACAGCTGAGTGCAGATAAGTTC,539 a.u.
CTAAATCGGACTTATCTGGTGATCGAAGAAACTTTC,557 a.u.
GAATTGAAAGGGCATAACGTGCAGACAAAAACATAG,754 a.u.
GAATGTGCGTCGTGTGACGTGATATTAATATAGTAG,1840 a.u.
GAAGCATATTAATATCACCATCATTTCTCCTCCTAG,504 a.u.
CCTAACTACTATATGCACGCAAGATAGCTTCGTACA,513 a.u.
GAATAAAATTATAACGGCGTGCTCGAGAGAAAATAG,583 a.u.
CTAAAAGAAAAGTTTCACATGAGAAGCACTGATTTC,513 a.u.
GAATTATCTGTTCATCAGATGGTCAAGCAAGGGTAG,577 a.u.
CTAGTTATCACTTAATACACCACCTGGTGTCCATTC,686 a.u.

# Set 3 — technique: aptamer microarray, sandwich; form: DNA with 2'F-ANA; matrix: in vitro; tested at: 200 nM; with: Cy3 exosite-II aptamer, 400 nM; direction: higher = stronger binding; strand: GGTTGGTGTGGTTGG
# Target: Prothrombin, mature alpha-thrombin (F2, Homo sapiens, UniProt P00734)
# Notes: whole 15-mer aptamer, many near background
Modification,mean fluorescence intensity
2'F-ANA at 6 8 9 12 13 15,579 a.u.
2'F-ANA at 2 3 4 5 8 9 11 12 13 15,95.3 a.u.
2'F-ANA at 1 2 3 4 5 10 11 14,46.9 a.u.
2'F-ANA at 4 6 8 11 13,208 a.u.
2'F-ANA at 6 9 12 13 14,183 a.u.
2'F-ANA at 1 2 5 8 13 14 15,47.1 a.u.
2'F-ANA at 3 4 5 9 11 14,48.9 a.u.
2'F-ANA at 1 2 3 5 7 9 11 14,53.8 a.u.
2'F-ANA at 3 4 8 9 12,1010 a.u.
2'F-ANA at 3 5 7 12 14,63.7 a.u.
2'F-ANA at 1 2 5 6 7 9 10 15,49.1 a.u.
2'F-ANA at 1 3 7 10 11 12 13,120 a.u.
2'F-ANA at 1 2 3 4 7 8 9 12 13 15,255 a.u.
2'F-ANA at 2 5 6 8 9 10 15,52 a.u.
2'F-ANA at 3 4 11 12,903 a.u.
2'F-ANA at 2 7 9 13 15,327 a.u.
2'F-ANA at 3 7 10 11 12,704 a.u.

# Set 4 — technique: RNA Bind-n-Seq; form: RNA; matrix: in vitro; tested at: 200 nM; notes: whole 134-nt RNA, ends assumed; with: 150 mM LiCl; relative to: input library; direction: higher = stronger binding; library: 7-deaza-guanosine replaces G
# Target: Ras GTPase-activating protein-binding protein 1, full length (G3BP1, Homo sapiens, UniProt Q13283)
# Chain of UniProt Q13283 (whole entry, looked up): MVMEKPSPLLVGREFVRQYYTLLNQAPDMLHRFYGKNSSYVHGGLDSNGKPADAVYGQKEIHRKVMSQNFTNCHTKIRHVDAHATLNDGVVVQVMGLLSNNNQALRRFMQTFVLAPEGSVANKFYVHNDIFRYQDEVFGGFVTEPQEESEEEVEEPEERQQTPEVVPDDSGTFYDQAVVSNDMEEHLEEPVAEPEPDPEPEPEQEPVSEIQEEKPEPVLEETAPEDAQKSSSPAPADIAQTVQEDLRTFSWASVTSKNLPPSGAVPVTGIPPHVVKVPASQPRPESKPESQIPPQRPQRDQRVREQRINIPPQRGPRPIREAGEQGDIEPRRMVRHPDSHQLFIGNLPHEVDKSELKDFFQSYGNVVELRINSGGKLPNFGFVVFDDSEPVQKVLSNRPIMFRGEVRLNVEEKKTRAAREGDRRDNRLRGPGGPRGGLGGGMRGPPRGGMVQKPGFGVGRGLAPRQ
# Shared flanks, not repeated: GGGAGUUCUACAGUCCGACGAUC … UGGAAUUCUCGGGUGUCAAGG
Strand,log2 enrichment
UGGGAGGUGGAUUUUGUUUAUUUUUUUAGCUCAUUUCCAGGGGUGGGAAUUUUUUUUUAAUAUGUGUCAUGACUAAAGUUGUUUUUGAAA,0.0388
UCCAAACCCAAGAAAAAGAAAUCUUUUUCCAAGGAGGAGUUGAUGAGUAGCGAUCUUGAAGAGACCGCUGGCAGCACCAGUAUUCCCAAG,-0.722
GUCCUGUGCUACACAUCGUAUGUACCGAAUCGGGAAAAAGGGAAAAAGGAAAAAGGGGAAAGUAUUAUGUUACGCCGUUCGGAUCUGCAC,-0.0182
CAAGUCCUGUGCUACACAUCGUAUGUACCGAAUCGGGGCCGGGGCCGGGGCCGGGAAAGUAUUAUGUUACGCCGUUCGGAUCUGCACUUC,-0.249
ACCAUGCAGGUGGGCAUCUUUGUGAAGUGGGGCAAGGGGGGGAUAGGGAGGGGGGUAACACUUUGGGAACAGGUGGUCCCAGGUCGUUUC,0.247
CUCAAGUCCUGUGCUACACAUCGUAUGUACCGAAUCGGGUGGGAGGGUUUGGGAAAGUAUUAUGUUACGCCGUUCGGAUCUGCACUUCCA,-0.21
CCUGUGCUACACAUCGUAUGUACCGAAUCAAAUUUUUUUAAACCCCCAAACCCCCCCAAAAAAGUAUUAUGUUACGCCGUUCGGAUCUGC,0.57
UGUCCAGCUCUGAAGGGCAAAGUGCAGAAGAUCCUAAUCUGGAAGUGGGGUCAGCCACCAUCUCCCACACCAGUGCCUCGGCCUCCAGAU,0.998

# A few entries again (set 1):
Strand,E-score
CCCTTAAA,-0.225
ACAGGTAG,-0.165
CTCTGAGC,-0.118
CATATCGC,0.189
AGATGGAC,0.0262
AATTAGGC,-0.163
